Measured values collected from several papers.
Numbered parts are unrelated; each lists some results of a single study. Positions count from the first letter of the parent shown.

Series 1 — method: universal PBM; form: double-stranded DNA, one strand shown; medium: in vitro; tested at: not given; direction: higher = stronger binding
Target: Sal-like protein 4, full length isoform B (SALL4, Homo sapiens, UniProt Q9UJQ4-2, residues 1-616)
Notes: 8-mer, flanks averaged, mean of replicates
Residues (chain): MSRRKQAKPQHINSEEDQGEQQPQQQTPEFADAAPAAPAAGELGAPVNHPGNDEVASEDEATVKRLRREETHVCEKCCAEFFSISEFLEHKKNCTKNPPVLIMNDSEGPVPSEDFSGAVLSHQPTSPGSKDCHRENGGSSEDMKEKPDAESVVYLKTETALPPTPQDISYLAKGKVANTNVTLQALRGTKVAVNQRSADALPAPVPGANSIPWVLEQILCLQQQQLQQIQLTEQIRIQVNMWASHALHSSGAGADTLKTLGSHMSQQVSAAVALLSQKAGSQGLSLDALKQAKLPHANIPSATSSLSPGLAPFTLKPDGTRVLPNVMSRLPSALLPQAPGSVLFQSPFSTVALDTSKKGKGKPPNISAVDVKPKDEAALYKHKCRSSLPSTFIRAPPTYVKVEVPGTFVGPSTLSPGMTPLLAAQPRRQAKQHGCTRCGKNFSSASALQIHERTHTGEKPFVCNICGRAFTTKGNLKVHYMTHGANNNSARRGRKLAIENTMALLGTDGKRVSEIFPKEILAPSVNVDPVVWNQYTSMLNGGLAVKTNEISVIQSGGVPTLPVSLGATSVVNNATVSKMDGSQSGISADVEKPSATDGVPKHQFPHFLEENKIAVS
| Strand | E-score |
| --- | --- |
| CCTGTTCA | -0.116 |
| ATTACTTA | 0.316 |
| AATGGCCA | -0.0931 |
| CGACTGAA | -0.2 |
| GCTAGCCC | -0.15 |
| CCGTTTCA | -0.0127 |
| AGGGGCAG | -0.236 |
| CGCGGTTC | -0.216 |
| GCGGGGAC | -0.158 |
| GACTCAAA | -0.0767 |
| AAGGCTTC | -0.099 |
| TCAGCACA | 0.0305 |
| CGGTGCCA | -0.354 |
| ACAACACC | 0.135 |
| AATAACTG | 0.303 |
| GGTTGAGA | -0.0956 |
| AAACCACC | -0.0567 |
| CTGAGGTA | -0.00529 |
| AGATCCTA | 0.00547 |
| AGCACTGG | -0.125 |
| CGTCATGC | -0.0938 |
| AAAGCAAA | 0.245 |
| AGAGTCCT | -0.168 |
| CGGTTAAA | 0.0656 |
| CTGCGGGC | -0.341 |

Series 2 — method: RNA Bind-n-Seq; form: RNA; medium: in vitro; tested at: 365 nM; relative to: no-protein control; direction: higher = stronger binding
Target: RNA binding protein fox-1 homolog 2, RRM domain, GST-SBP tag (RBFOX2, Homo sapiens, UniProt O43251-10, residues 100-194)
Notes: natural RNA segment, single round, ends assumed
Shared flanks, not repeated: GGGAGUUCUACAGUCCGACGAUC … UGGAAUUCUCGGGUGCCAA
Target sequence (chain): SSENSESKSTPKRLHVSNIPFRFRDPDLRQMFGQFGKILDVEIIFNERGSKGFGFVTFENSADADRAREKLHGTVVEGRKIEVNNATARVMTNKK
| Strand | RBNS enrichment (R) |
| --- | --- |
| CUCAGUACUGUAUUUGCUCAGUGCAUCAGGAAUGGGUGUAUGGGUGUGUGUGGGUGGGUGUGAGUGUGGGUGUGUACGUACCAAUAAACAACCUGGUUUUAAGACAAUGU | 1.45 |
| GAACUUGAGUCUUUUGCCUUGCCUUUAUUACAUGUAAAUUUUGAAUCUCGUGACCAGUGAUUUGGAUUUUAUUUUGUAUUUACAGGGUCUGUCAUUAAUAAUAAUUAACC | 0.383 |
| AUGUGGAAGUCAGUACGAUCAAGUUGUUGACUGUGAUUAGAUCACAUCUUAAAUUCAUUUCUAGACUCAAAACCUGGAGAUGCAGCUACUGGAAUGGUGUUUUGUCAGAC | 0.314 |
| CGUUCAACAAAGGACCAGCAGCAUCUUAUCAGGCGAUCCUCAGAGGCUCCAAGGAGCAUUGGAGAGAAUGCCCCUUUCUGGGCUUGAUGUCUUGGUUUUGGUUUAAUACC | 1.01 |
| GUGUGAAGUGGCCUGGGGUUGUUCCAUAAUGAAGACUCAAGAAGACUGUUUCCCCACCACAGAUGUCCUGAGAUUCAGUUAAAACGAAACAUGCUGCAUCUCCAGAGAUG | 0.407 |
| GCGAAAGCACCACCCUCGAGCUGCCUUGCCUGUCAGCUGCUCCUUCGAGGCCUGUGUCUGGUGGGAGACAAGGCUGUGUGUCUCUGUGUGUGUAAACAAACGUGCACGUG | 0.371 |
| UGGAGAUCCCAUCCUGCUACUAAGAAGUUUUCUGUACAUCACUUCCAAACAUUGGAAACUUUCAGAUCAUAAGGCAGAAUUUAGUAAUUUUGUGCUUCUGUUAAUGUCUA | 0.371 |
| UUCUGCUCUGGGCUGUGAAGGGGUGGAGCAGGCAGUGGCCAGCUUUGCCCUUCCUGCUGUCUCUGUUUCUAGCUCCAUGGUUGGCCUGGUGGGGGUGGAGUUCCCUCCCA | 0.574 |

Series 3 — method: DHFR PCA, deep sequencing; medium: yeast; together with: (+)-ABA 0.0091 µM; relative to: wild-type fitted maximum; direction: higher = stronger binding
Target: ABI1, truncated, D143A, DHFR fusion (Arabidopsis thaliana)
Notes: methotrexate growth selection, single substitutions
Starting sequence: PYL1, truncated, DHFR fusion (Arabidopsis thaliana); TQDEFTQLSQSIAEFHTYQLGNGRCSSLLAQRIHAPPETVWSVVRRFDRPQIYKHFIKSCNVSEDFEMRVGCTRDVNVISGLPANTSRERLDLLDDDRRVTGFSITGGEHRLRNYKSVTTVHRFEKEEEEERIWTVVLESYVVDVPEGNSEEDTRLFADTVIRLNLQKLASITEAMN; partner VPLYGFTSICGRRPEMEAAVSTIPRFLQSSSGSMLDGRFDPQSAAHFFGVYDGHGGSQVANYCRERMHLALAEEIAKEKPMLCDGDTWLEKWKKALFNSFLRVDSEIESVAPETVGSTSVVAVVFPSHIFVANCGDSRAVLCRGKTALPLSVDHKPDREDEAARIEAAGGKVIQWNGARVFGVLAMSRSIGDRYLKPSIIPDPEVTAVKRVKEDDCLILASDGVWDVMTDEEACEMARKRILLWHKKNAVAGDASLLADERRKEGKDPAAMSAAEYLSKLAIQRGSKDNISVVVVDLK
| Change | relative binding score |
| --- | --- |
| E151K | 30.8% |
| S80P | 5.07% |
| D48A | -0.867% |
| V145Q | -0.075% |
| L93W | -4.15% |
| K168N | 62.4% |
| I79Q | 12.9% |
| V143M | 7.27% |
| V43P | 0.987% |
| T173N | 6.29% |
| H55V | 43.2% |
| K168V | 1.23% |
| V44D | -3.99% |
| N149K | 7.58% |
| Q19G | 0.773% |
| P37L | 0.929% |
| F124G | 3.97% |
| S9C | 13.3% |
| L164V | 2.94% |
| R111P | 20.5% |
| S117T | 3.4% |
| Q7D | 16.8% |

Series 4 — organism: Saccharomyces cerevisiae; observed: binding; method: competitive growth deep sequencing; form: peptide; strain: cyclin D3-Cln2 fusion strain; tested at: concentration not given; notes: peptide tiling library; direction: direction not given
| Molecule | growth enrichment score |
| --- | --- |
| KDDDKAWEYEERDRRS | 0.743 |
| VRDLSYRLVFLACCVA | -0.276 |
| LENIEPLQVSFAVLSS | -0.388 |
| RNRGPKLNAMLRLGVL | -1.51 |
| SGYLTDENEVGFRG | 0.491 |
| FQDSGYNELKSCSFDN | -0.109 |
| DGCSPIKNWSPMRL | -0.249 |
| VLVRTSACRSLFGPVD | -0.338 |
| QNPCGSKACRRLFGPV | -0.264 |
| PQWPCGKHKRVLIFAS | -0.625 |
| TSPGPVLLHPSPSTTQ | 0.554 |
| NNIRKALSFDNRGEEH | 1.5 |
| NFETPEAETPIRSPFK | 0.525 |
| TRRRLFVENDSP | -0.792 |
| SDSTVTKLDFDLEP | 0.306 |
